# Experimental data from different studies.
# Lines come from different studies, so protocols differ. “And” joins repeats or separate records; there may be more than shown. Numbers after ± are the reported error.
Structure (SMILES),target,test,system,conditions,how to read,endpoint,result
O=C([O-])CN1CCN(CC(=O)[O-])CCN(C(CCC(=O)NCCCCCN(CCCC[C@H](NC(=O)N[C@@H](CCC(=O)O)C(=O)O)C(=O)O)C(=O)c2ccc(I)cc2)C(=O)O)CCN(CC(=O)[O-])CC1.[68Ga+3] (some centres unmarked),"Glutamate carboxypeptidase 2 (FOLH1, Homo sapiens, UniProt Q04609)",PET/CT,"prostate cancer patients, primary prostate cancer lesions",,baseline: primary lesions over liver,tumour-to-normal tissue ratio,8.36 ± 7.84
Cc1cn([C@@H]2C[C@@H](O)[C@H](COP(=O)(O)O)O2)c(=O)[nH]c1=O,"Thymidylate kinase (DTYMK, Homo sapiens, UniProt P23919)",substrate,,,baseline: compound over D-dTMP,Km ratio,20 and 19
CNc1ccccc1C(=O)O[C@H]1C[C@H](n2cnc3c(N)ncnc32)O[C@@H]1COP(=O)(O)OP(=O)(O)O,"Unconventional myosin-Va (Gallus gallus, UniProt Q02440, D297C/G292C/I296C/S293C/V295G)",van't Hoff analysis,,"concentration not given, together with: 10 mM Mg2+",,ΔS of ligand binding,0.8 ± 4.5 cal/(mol·K)
CCc1nc2cc3ccccc3cc2cc1C(=O)N1CCC[C@H]1C(=O)N[C@@H](C/C=C\C[C@H](NC(=O)[C@@H]1CCCN1C(=O)c1cc2cc3ccccc3cc2nc1CC)C(=O)N[C@@H](CCCCN)C(=O)NCCCN)C(=O)N[C@@H](CCCCN)C(=O)NCCCN,HIV-1 frameshift site RNA,SPR,,,,residence time,67 s
CCc1cc(C)n2nc(-c3ccc(OCC[18F])cc3)c(CC(=O)N(CC)CC)c2n1,"Translocator protein (Tspo, Rattus norvegicus, UniProt P16257)",two-tissue compartment model,"rat C6 glioma model, brain",60 min dynamic PET,,K1 influx rate constant,6.26 ± 1.13 mL/cm3/min
CCc1nc2sc(C(=O)c3ccc(C(C)C)cc3)c(N)c2c2c1CCCC2,"ADP-ribosyl cyclase/cyclic ADP-ribose hydrolase 1 (CD38, Homo sapiens, UniProt P28907)","cyclase activity, fluorometric",,"50 µM, together with: NGD+ substrate",baseline: untreated,remaining activity,28.1 ± 9.2%
CC(=O)NCCN(CCC(=O)NCCN(CCC(=O)NCCN(CCC(=O)NCCC(N)=O)C(=O)[C@@H](N)CCCNC(=N)N)C(=O)[C@@H](N)CCCNC(=N)N)C(=O)[C@@H](N)Cc1ccccc1,HIV-1 TAR RNA,,,,,non-electrostatic TΔS°,-4.57 ± 0.311 kcal/mol
COc1ccc(Nc2ccn3ncc(-c4ccc5c(c4)CN([C@H]4CCC(=O)NC4=O)C5=O)c3n2)cc1Cl,"Cereblon/Casein kinase I alpha (CSNK1A1/CRBN, Homo sapiens, UniProt P48729+Q96SW2)","protein level, degrader, luciferase",MOLT-4,,,Dmax,1%
CCNc1nc2c(c(=O)[nH]1)[n+](C)cn2[C@@H]1O[C@H](COP(=O)(O)OP(=O)(O)OP(=O)(O)OC[C@H]2O[C@@H](n3cnc4c(=O)[nH]c(N)nc43)[C@H](O)[C@@H]2O)[C@@H](O)[C@H]1O,"m7GpppX diphosphatase (dcs-1, Caenorhabditis elegans, UniProt G5EFS4)","decapping, substrate, HPLC",,concentration not given,,initial hydrolysis rate,6.27 ± 0.36 µM/min
CC(=O)NCCN(CC(=O)NCCN(CC(=O)NCCN(CC(=O)NCCC(N)=O)C(=O)C[C@@H](N)CCCNC(=N)N)C(=O)C[C@@H](N)CCCNC(=N)N)C(=O)C[C@@H](N)Cc1ccccc1,HIV-1 TAR RNA,,,extrapolated to 1 M KCl,,non-electrostatic ΔG°,-7.337 ± 0.0717 kcal/mol
CC(C)c1cccc(C(C)C)c1-n1c(Cl)c(Cl)n(-c2c(C(C)C)cccc2C(C)C)c1=[Se].[Cl][Au],"Thioredoxin reductase 1, cytoplasmic (TXNRD1, Homo sapiens, UniProt Q16881)",inhibitor,H157,"1 µM, 24 h",,TrxR activity,no effect

# Some of these lines once more:
Structure (SMILES),target,test,system,conditions,how to read,endpoint,result
CCc1cc(C)n2nc(-c3ccc(OCC[18F])cc3)c(CC(=O)N(CC)CC)c2n1,"Translocator protein (Tspo, Rattus norvegicus, UniProt P16257)",two-tissue compartment model,"rat C6 glioma model, brain",60 min dynamic PET,,K1 influx rate constant,6.26 ± 1.13 mL/cm3/min
